Experimental data from different studies.
Numbered parts are unrelated; each lists some results of a single study.

Block 1
Target: Beta-1 adrenergic receptor (ADRB1, Homo sapiens, UniProt P08588)
UniProt P08588, sequence (whole entry, looked up): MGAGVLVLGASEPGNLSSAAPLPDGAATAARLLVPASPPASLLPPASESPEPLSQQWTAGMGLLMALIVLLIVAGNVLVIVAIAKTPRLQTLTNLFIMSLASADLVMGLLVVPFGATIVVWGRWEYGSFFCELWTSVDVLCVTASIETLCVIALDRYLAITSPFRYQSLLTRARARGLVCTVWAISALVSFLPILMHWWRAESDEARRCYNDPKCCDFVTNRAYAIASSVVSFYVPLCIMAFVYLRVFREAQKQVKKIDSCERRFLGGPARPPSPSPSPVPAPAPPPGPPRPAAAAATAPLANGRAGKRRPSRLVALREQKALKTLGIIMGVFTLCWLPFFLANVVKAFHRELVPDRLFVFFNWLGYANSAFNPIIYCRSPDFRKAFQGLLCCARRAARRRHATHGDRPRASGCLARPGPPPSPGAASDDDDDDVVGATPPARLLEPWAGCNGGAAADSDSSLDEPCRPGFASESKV
Action: agonist
Measurement: EC50
c1ccc(-c2n[nH]cc2-c2ccnc3ccccc23)nc1: ≥ 100 µM
O=c1cc(-c2ccccn2)oc2c(NC3CCOCC3)nccc12: ≥ 100 µM
O=C1c2c(nc(COc3cccc(N4CCOCC4)c3)n2Cc2ccccc2)NCCN1CC1CC1: ≥ 100 µM
CC(C)(C)NC[C@H](O)COc1cccc2c1CCCC2=O: ≥ 100 µM
Cn1nccc1-c1ncc2c(n1)OCCN(c1cccc(C(F)(F)F)c1)C2=O: ≥ 100 µM
O=C(Nc1ccc([C@@H](O)[C@H]2COCC(=O)N2CCCc2ccccc2)cc1)C1CCC1: ≥ 100 µM
N#CC(c1nc2ccccc2s1)c1cnn(-c2ccccc2)c(=O)c1Cl (stereo not shown): ≥ 100 µM
O=C(Nc1cccc(Cl)c1)N1CCN(c2cc(N3CCOCC3)cnn2)CC1: ≥ 100 µM
CCCCCCCCN[C@H](C)[C@@H](O)c1ccc(SC(C)C)cc1: ≥ 100 µM
COc1cc(CNCCCO)ccc1OCC(O)CN1CCSCC1 (stereo not shown): ≥ 100 µM

Block 2
Target: Histamine H1 receptor (HRH1, Homo sapiens, UniProt P35367)
UniProt P35367, sequence (whole entry, looked up): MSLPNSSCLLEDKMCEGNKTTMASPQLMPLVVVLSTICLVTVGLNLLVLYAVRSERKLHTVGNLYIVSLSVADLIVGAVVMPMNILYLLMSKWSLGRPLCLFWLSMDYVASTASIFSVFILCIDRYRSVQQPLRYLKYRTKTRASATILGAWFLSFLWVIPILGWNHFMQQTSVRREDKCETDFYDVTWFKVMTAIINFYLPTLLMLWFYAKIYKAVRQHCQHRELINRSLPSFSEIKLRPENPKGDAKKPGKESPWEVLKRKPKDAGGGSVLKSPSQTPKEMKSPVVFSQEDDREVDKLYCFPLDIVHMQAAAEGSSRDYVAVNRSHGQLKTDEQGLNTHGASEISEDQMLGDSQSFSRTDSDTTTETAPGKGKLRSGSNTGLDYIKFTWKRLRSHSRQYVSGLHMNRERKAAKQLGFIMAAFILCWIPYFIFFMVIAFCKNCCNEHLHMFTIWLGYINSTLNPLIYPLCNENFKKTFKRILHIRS
Read-out: ligand displacement
Tested at: 10 µM
Measurement: inhibition
Cc1cc(Nc2nccc(C)n2)cc(-c2cnc([C@@]3(O)CC[C@H](C(=O)O)C(C)(C)C3)s2)c1: 7.85%
CN(C)c1ncnc(-c2ccc3nc(Nc4cc(CN5CCN(C(=O)CC(F)(F)F)CC5)ccn4)[nH]c3c2)c1Cl: 26.4%
CS(=O)(=O)N1CCCC(NC(=O)[C@H](CCC2CCCCC2)NC(=O)c2ccc(CNC(=O)c3cnc4ccccn34)cc2)C1 (stereo partly shown): 3.62%
Cc1ncc(-c2cc(Cl)ccc2F)cc1-n1c(=O)n(CC(N)=O)c2ccccc21: -2.43%
C[C@@H](c1cccc(C#N)c1)n1cc(Cl)cc(C(N)=O)c1=N: -9.05%
N#CC1(c2ccccn2)CCN(Cc2cc(C(=O)N3CCCC3)c(=O)n3ccccc23)CC1: 9.7%
CC1CCN(c2ccnc(NCc3cn(C)cn3)n2)CC1: 40.1%
NC(=O)c1ccc2nc(-c3ccc(C4(N)CCC4)cc3)c(-c3ccccc3)n2n1: 30.8%
O=C1NC(c2ccccn2)Sc2ccccc21 (stereo not shown): 49.9%
CCc1ccccc1C(=O)Nc1n[nH]c2c(C)c(F)c(C3C(C#N)=C(C)N(C)C(C)=C3C#N)cc12: 6.23%
Cn1nc(C(=O)NCc2ccc(C(=O)O)cc2)cc1-c1ccc2[nH]ccc2c1: 8.74%
Cc1ccc(-c2cnc([C@@]3(O)CC[C@H](C(=O)O)C(C)(C)C3)s2)cc1Nc1cccc(C(F)(F)F)n1: 9.09%
CN1CCN(C(=O)C(C)(C)c2ccc(C(=O)Nc3cn4cc(-c5cc(C(C)(C)C)cc(C(C)(C)C)c5)ccc4n3)cc2)CC1: 83%
C[C@@H]1CN(c2cc(-c3n[nH]c4ccc(OC5(C)CC5)cc34)ncn2)C[C@H](C)O1: -6.46%
COc1cc(-c2cn(C3CCc4c(F)cccc4N(CC(F)(F)F)C3=O)nn2)ccc1-n1cnc(C)c1 (stereo not shown): 7.55%
CC(=O)N1CCC(c2ccc(C(=O)NC3=NCCN3)cc2C(F)(F)F)CC1: -0.162%

Block 3
Target: Ribosomal protein S6 kinase alpha-6 (RPS6KA6, Homo sapiens, UniProt Q9UK32)
UniProt Q9UK32, sequence (whole entry, looked up): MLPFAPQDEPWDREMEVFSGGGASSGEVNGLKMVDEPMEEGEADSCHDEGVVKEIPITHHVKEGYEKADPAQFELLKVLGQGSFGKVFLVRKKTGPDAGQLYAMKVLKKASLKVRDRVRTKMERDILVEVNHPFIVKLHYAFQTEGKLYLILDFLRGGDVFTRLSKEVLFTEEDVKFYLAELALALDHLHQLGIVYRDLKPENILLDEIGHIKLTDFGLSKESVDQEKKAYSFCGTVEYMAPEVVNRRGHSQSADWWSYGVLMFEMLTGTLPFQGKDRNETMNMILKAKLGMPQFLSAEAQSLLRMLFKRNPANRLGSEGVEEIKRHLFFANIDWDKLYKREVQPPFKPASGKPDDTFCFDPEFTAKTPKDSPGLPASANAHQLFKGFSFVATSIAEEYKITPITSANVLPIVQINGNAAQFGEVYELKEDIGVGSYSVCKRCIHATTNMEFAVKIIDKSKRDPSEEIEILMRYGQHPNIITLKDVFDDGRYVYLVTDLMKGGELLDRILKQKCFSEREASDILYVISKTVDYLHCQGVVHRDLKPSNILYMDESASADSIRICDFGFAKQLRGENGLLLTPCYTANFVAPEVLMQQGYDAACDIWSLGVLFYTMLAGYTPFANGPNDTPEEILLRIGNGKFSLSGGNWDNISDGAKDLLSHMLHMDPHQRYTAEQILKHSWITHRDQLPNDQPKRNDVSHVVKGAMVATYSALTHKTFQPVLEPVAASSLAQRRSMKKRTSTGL
Read-out: enzyme activity
Action: inhibitor
Tested at: 0.5 µM
Reference: control
Measurement: remaining activity
COc1cc2nccc(Oc3ccc(NC(=S)NC(=O)c4ccccc4C)cc3)c2cc1OC: 93%
CN(C)c1ccc(C=C2C(=O)Nc3ccccc32)cc1: 93.9%
N#CC(C#N)=C(N)/C(C#N)=C/c1ccc(O)cc1: 104%
COc1ccc(CNC(=O)Nc2ncc([N+](=O)[O-])s2)cc1: 99.8%
CCOC(=O)c1c(C)[nH]c(/C=C2\C(=O)Nc3ccccc32)c1C: 87.6%
O=c1c2ccccc2[nH]c(=S)n1CCN1CCC(=C(c2ccc(F)cc2)c2ccc(F)cc2)CC1: 101%
C#Cc1cccc(Nc2ncnc3cc(OCCOC)c(OCCOC)cc23)c1: 99.1%
OCC(O)CCON=C1C(c2c(O)[nH]c3ccccc23)=Nc2ccccc21 (stereo not shown): 16.4%
Nc1ncnc2n[nH]c(Nc3ccc(F)cc3)c12: 71.7%
O=C(CCCc1ccc(-c2ccccc2F)cc1)Nc1ccc(O)cc1: 105%
COc1ccc(OC)c2c(=S)c3ccccc3[nH]c12: 85.2%
O=C1NC(=O)C(c2cn(CCCn3ccnc3)c3ccccc23)=C1Nc1ccccc1: 2%
COc1cc2ncnc(Nc3ccc(Oc4ccccc4)cc3)c2cc1OC: 111%
O=S(=O)(c1cccc2cnccc12)N1CCCNCC1: 94%

Block 4
Species: mouse
Matrix: microsomes or S9
Tested at: 2 µM
Time: 0.5 h
Measurement: remaining compound
Nc1cc(-c2ccc(Br)cc2)nn1CC1CCCCC1: 34.9%
Cc1noc(C)c1Cc1c(C(=O)N2CCC(n3c(C)cnc3C3CCC3)C2)noc1C (stereo not shown): 1.86%
CCc1cc2c3c([nH]c2cc1S(=O)(=O)N(Cc1ccccc1)C(C)C)CCCC3=O: > 99%
Cn1cc(C(=O)Nc2ccc(C#N)cc2)c2ccccc2c1=O: 47.4%
Cc1c(C(=O)OC(C)C)sc2ncnc(N3CCCCC3)c12: < 1%
Cc1cc2c(cc1C)OC(c1nc(N(C)C)no1)C2 (stereo not shown): 6.84%
OCCN(CC(O)c1ccc(F)c(F)c1)c1ccccc1 (stereo not shown): 6.94%
CCN(CC)S(=O)(=O)c1ccc(C)c(N2C(=O)CC(C#N)=C2N)c1: 5.05%
O=C(NC1CCCC1)C1(Cc2ccccn2)CCOCC1: 78.6%
c1ccc2c(c1)CC(CNc1nccc(-n3cccn3)n1)CO2 (stereo not shown): 0.0455%
CCOC(C)c1nc(Cn2nc3ccccn3c2=O)cs1 (stereo not shown): 58.5%
CCCC(NNC(=O)c1cnccn1)C(=O)OC (stereo not shown): 1.03%

Excerpt of the above (block 3):
O=S(=O)(c1cccc2cnccc12)N1CCCNCC1: 94%
CN(C)c1ccc(C=C2C(=O)Nc3ccccc32)cc1: 93.9%
N#CC(C#N)=C(N)/C(C#N)=C/c1ccc(O)cc1: 104%
O=C1NC(=O)C(c2cn(CCCn3ccnc3)c3ccccc23)=C1Nc1ccccc1: 2%
